Measurements collected from several papers.
Numbered parts are unrelated; each lists some results of a single study.
Sequence of UniProt P41143 (whole entry, looked up): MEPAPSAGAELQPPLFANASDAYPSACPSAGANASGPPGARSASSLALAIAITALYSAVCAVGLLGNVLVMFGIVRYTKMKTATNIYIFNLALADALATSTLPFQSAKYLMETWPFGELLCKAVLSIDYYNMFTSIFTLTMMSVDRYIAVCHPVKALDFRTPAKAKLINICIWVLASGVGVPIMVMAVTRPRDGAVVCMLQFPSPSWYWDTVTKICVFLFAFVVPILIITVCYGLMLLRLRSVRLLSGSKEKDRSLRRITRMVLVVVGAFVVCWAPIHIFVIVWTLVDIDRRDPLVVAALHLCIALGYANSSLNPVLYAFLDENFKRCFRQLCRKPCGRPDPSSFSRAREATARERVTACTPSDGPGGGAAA
Sequence of UniProt P9WI81 (whole entry, looked up): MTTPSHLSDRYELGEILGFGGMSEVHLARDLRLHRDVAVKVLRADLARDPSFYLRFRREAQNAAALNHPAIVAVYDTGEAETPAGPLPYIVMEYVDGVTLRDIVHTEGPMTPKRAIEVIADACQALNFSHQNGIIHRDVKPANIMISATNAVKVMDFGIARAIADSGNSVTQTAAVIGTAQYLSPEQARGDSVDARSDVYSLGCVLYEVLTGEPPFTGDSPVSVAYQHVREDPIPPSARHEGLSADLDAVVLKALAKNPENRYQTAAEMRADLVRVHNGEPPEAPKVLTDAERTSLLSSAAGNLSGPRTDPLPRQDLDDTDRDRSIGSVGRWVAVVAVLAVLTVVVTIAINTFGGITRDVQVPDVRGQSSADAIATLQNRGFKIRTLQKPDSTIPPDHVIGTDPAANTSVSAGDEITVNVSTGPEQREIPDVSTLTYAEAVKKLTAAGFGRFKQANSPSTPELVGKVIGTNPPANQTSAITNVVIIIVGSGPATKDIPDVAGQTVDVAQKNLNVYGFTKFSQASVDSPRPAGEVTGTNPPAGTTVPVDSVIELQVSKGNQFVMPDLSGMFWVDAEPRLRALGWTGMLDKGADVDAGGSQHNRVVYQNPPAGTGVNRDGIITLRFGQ

Sample 1 — cell line: mouse MPNST tumor cells; method: high-content nuclear imaging; refers to: cell number; tested at: 10 µM; time: 12 h; notes: mean of 2 replicates; reference: plate mean; direction: higher = more cells
Structure (SMILES) | nuclei count [z-score]
COc1ccc(CNC(=O)C=Cc2ccc3[nH]cc(CCN(C)C)c3c2)cc1 | 3.36
CN1CC2CN(c3ccc(-c4ccccc4)nn3)CC2C1 (stereo not shown) | 2.7
NC(=O)CN1CCCC1=O | 0.398
O=C(O)CCCc1ccc(N(CCCl)CCCl)cc1 | 2.22
O=C(O)CNC(=O)c1c(O)c2ccccc2n(Cc2ccccc2)c1=O | 2.47

Sample 2 — cell line: HaCaT; tested at: 100 µM; time: 36 h
Structure (SMILES) | viability [%]
Cc1ccc(-n2nccn2)c(C(=O)N2CCN(c3nc4cc(Cl)ccc4o3)CC[C@H]2C)c1 | 27.1
CN1C(=O)COc2c(C(=O)NC3CN4CCC3CC4)cc(Cl)cc21 (stereo not shown) | 83.9
C[C@]12CCC(=O)C=C1CC[C@@H]1[C@@H]2C(=O)C[C@]2(C)C(=O)CC[C@@H]12 | 99.4

Mixed results
CDPK1: Calcium-dependent protein kinase 1 (CDPK1, Plasmodium falciparum, UniProt P62344)
Sequence of UniProt P62344 (whole entry, looked up): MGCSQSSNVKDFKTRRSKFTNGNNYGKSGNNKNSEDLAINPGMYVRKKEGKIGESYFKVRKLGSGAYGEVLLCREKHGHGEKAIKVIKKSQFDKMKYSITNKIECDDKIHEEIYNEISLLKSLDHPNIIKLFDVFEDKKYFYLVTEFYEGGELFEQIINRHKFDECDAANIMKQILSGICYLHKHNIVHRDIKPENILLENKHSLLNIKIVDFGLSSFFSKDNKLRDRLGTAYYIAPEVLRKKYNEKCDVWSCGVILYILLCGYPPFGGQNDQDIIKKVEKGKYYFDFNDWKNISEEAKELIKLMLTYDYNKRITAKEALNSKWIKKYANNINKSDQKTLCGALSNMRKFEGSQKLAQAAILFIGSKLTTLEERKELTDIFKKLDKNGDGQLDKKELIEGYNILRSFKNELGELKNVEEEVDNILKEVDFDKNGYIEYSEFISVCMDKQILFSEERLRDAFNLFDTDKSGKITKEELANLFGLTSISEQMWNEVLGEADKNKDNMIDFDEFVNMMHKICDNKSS
Structure (SMILES) | target or system | assay | test system | setting | endpoint | result
O=C(NS(=O)(=O)c1ccc(NCC2CCOCC2)c([N+](=O)[O-])c1)c1ccc(N2CCN(Cc3ccc(C(F)(F)F)cc3-c3ccc(Cl)cc3)CC2)cc1Oc1cnc2[nH]ccc2c1 | pknB (Mycobacterium tuberculosis, UniProt P9WI81) | cell-free assay, competition with immobilised ligand |  | 1 µM | remaining binding | 90%
O=C1CCC(N2Cc3c(ccc4c3OCC43CCN(Cc4ccccc4)CC3)C2=O)C(=O)N1 (stereo not shown) |  |  | ICR mouse, male, plasma | intravenous, 1.0 mg/kg | volume of distribution (Vz) | 5.77 L/kg
O=C(NCc1ncc(C(F)(F)F)cc1Cl)c1ccc2c(c1)C1(CCS(=O)(=O)CC1)[C@@H](C1CC1)N2S(=O)(=O)c1ccc(F)cc1 | OPRD1 (Homo sapiens, UniProt P41143) | ligand displacement |  | 10 µM | inhibition | -2.65%
CS(=O)(=O)N1CCCC(NC(=O)[C@H](CCC2CCCCC2)NC(=O)c2ccc(CNc3ncnc4c3nnn4-c3ccccc3)cc2)C1 (stereo partly shown) | CDPK1 | cell-free assay, competition with immobilised ligand |  | 0.1 µM | remaining binding | 100%
Nc1cnc(N2CCc3cc(S(=O)(=O)Nc4c(F)cc(Cl)cc4F)cc(N4CCCC4=O)c32)nc1 | CDPK1 | cell-free assay, competition with immobilised ligand |  | 1 µM | remaining binding | 97%

For quick reference, copied from above (sample 2):
Structure (SMILES) | viability [%]
C[C@]12CCC(=O)C=C1CC[C@@H]1[C@@H]2C(=O)C[C@]2(C)C(=O)CC[C@@H]12 | 99.4
